Results of several laboratories.
Parts stem from different laboratories: compare values within a part only. Substitutions count along the parent as printed.

Set 1 — target: UBE2G1 UBC core domain (UniProt P62253); technique: yeast two-hybrid; sample: yeast; notes: mostly zero background; reference: not given; direction: higher = stronger interaction
B1: TRIM69 RING domain (UniProt Q86WT6); chain VIQDITMELHCPLCNDWFRDPLMLSCGHNFCEACIQDFWRLQAKETFCPECKMLCQYNNCTF
B2: ZNF598 RING domain (UniProt Q86UK7); chain AAAPERGGGSCVLCCGDLEATALGRCDHPVCYRCSTKMRVLCEQRYCAVCREELRQVVFGK
B3: ARK2C RING domain (UniProt Q6ZSG1); chain EGEESDTDEKCTICLSMLEDGEDVRRLPCMHLFHQLCVDQWLAMSKKCPICRVDIETQLGAD
Residues (chain): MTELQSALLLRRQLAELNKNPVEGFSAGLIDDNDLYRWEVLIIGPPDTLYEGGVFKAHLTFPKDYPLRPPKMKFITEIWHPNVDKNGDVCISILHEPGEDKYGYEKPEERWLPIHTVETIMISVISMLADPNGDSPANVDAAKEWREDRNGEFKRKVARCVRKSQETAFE
Molecule | lacZ reporter activity
DAIPSLSECQCGICMEILVEPVTLPCNHTLCKPCFQSTVEKASLCCPFCRRRVSSWTRYH (RNF168 RING domain (UniProt Q8IYW5)) | 0
VTLSLTLPITCHICLGKVRQPVICINNHVFCSICIDLWLKNNSQCPACRVPITPENPCK (OBI1 RING domain (UniProt Q5W0B1)) | 0
EDEVSDNSAECVVCLSDVRDTLILPCRHLCLCNTCADTLRYQANNCPICRLPFRALLQIR (RNF157 RING domain (UniProt Q96PX1)) | 0
QHHELTSLFECPVCFDYVLPPILQCQAGHLVCNQCRQKLSCCPTCRGALTPSIRNL (SIAH2 RING domain (UniProt O43255)) | 0
FPEHFVKSISCQICEHILADPVETNCKHVFCRVCILRCLKVMGSYCPSCRYPCFPTDLES (RAG1 RING domain (UniProt P15918)) | 0
FASPPDSNFVCSVCHGVLKRPARLPCSHIFCKKCILRWLARQKTCPCCRKEVKRKKVVH (RNF151 RING domain (UniProt Q2KHN1)) | 0
B1 (TRIM69 RING domain) | 0
B2 (ZNF598 RING domain) | 0
B3 (ARK2C RING domain) | 0
PEELQAMDNVCIICREEMVTGAKRLPCNHIFHTSCLRSWFQRQQTCPTCRMDVLRASLPA (SYVN1 RING domain (UniProt Q86TM6)) | 0

Set 2 — technique: DHFR PCA, deep sequencing; sample: yeast; added: (+)-ABA 200 µM; reference: wild-type fitted maximum; direction: higher = stronger binding
Target: ABI1, truncated, D143A, DHFR fusion (Arabidopsis thaliana)
Notes: methotrexate growth selection, single substitutions
Starting sequence: PYL1, truncated, DHFR fusion (Arabidopsis thaliana); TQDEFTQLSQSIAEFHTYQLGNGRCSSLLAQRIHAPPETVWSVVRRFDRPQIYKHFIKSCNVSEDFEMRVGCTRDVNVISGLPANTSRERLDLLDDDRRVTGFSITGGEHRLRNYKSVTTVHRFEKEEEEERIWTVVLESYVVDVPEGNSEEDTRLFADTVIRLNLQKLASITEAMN; partner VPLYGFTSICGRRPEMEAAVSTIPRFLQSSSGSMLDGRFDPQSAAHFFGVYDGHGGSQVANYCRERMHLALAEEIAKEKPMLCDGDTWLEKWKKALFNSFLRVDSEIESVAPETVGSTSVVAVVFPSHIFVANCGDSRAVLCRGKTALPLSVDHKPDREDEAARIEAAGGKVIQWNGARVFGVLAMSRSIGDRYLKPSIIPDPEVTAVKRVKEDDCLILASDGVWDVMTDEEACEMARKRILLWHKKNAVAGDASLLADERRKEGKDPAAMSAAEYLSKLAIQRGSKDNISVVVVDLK
Variant | relative binding score [%]
R46T | 83.3
R90Y | 59.8
T135V | 61.6
I52P | 44
V118M | 102
F66E | 91.7
S104W | 0.394
V100W | 16.9
D92Y | 50.6
E89V | 9.46
D3L | 99.2
V118Q | 70.9
S104T | 104
S104N | 31

Set 3 — target: CCNE1, cyclin fold, Cln2 fusion (human); technique: yeast growth competition, sequencing; sample: yeast; notes: strong parent motif; reference: not given; direction: higher = stronger binding
Starting sequence: RBL2 docking peptide (human); STTRRRLFVENDS; partner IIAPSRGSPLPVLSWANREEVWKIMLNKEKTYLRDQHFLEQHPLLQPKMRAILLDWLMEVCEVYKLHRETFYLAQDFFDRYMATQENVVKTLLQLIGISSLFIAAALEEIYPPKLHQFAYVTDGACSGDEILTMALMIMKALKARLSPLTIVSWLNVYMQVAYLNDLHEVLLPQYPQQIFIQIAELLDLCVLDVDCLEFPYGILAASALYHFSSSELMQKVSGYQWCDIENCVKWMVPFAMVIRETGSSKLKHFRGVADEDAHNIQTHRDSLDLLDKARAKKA
Variant | normalised enrichment score
V9A | 5.62
F8G | -0.0608
V9E | 5.67
T2C | 5.44
D12Y | 4.48
S1Q | 5.91
E10G | 4.05
R4Y | 1.91
F8W | 1.77
E10N | 4.82
R4S | 1.86
D12F | 3.78

Set 4 — technique: RNA Bind-n-Seq; molecule type: RNA; sample: in vitro; tested at: not given; reference: input RNA pool; direction: higher = stronger binding
Target: RING finger protein unkempt homolog, zinc fingers 1-6, GST-SBP tag (UNK, Homo sapiens, UniProt Q9C0B0, residues 30-357)
Chain of UniProt Q9C0B0 (30-357, looked up): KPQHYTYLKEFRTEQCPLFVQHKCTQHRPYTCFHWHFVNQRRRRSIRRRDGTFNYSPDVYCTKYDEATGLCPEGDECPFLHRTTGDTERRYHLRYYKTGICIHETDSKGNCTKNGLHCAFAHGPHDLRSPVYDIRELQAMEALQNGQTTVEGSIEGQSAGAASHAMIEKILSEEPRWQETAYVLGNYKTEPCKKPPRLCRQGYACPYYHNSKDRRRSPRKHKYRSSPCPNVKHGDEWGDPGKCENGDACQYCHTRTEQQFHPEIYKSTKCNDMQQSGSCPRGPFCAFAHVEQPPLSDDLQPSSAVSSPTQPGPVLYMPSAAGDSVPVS
Notes: RNA with constant flanks, human and mouse sites, ends assumed
Shared flanks, not repeated: GGGAGUUCUACAGUCCGACGAUC … CAACAGAGGAUUGAGCAUCA
Strand | bound/input enrichment
GGCUUUGCGCUACUCUUCUACCUUGAACAGCUUCUUGGGGGACCAGAGGUGUUUCUAGGAUUCUUAAAGGCUUAUGUUAAGAAGUUUUCCUACCAAAGUGUAACGACUGAUGACUGGAAG | 0.185 ratio
GUUGUAAAUCAGACUCCAGCAAUUUUUGUUGUAUGAUUUUGUUUUUUUGUAAAGUGUAAUUGUCCUUGUACAAAAUGCUCAUAUUUAAUUAUGAACUGCUUUAAAUCACUAUCAAAGUUA | 0.218 ratio
UUCAUUCUACUAUUCCAGAGACUGCAAAACUCCAAGACCACCAAGUUUAUCAAGAGUUUCUUAGUGUUUAUUAACUUAUAUUGCAUUAAGUAUGGGGCACUAGCAUUACAAGAAAUAUUU | 0.607 ratio
AAUAUAAAAGAAUCUCCGAAGAGGCCAGAAACUAGAUCCUUUACUCCUGAAGAAUUCUUUAGUAUUUUCAAUAGAUCCAUUGAUGCCUUUAAGGACUUUAUGGUGGCAUCUGACACUAGU | 74.4 ratio
GCUCUAGUUCUUAACAACCGACACUCCUACAAGAUUUAGAAAAAAGUUUACAACAUAAUCUAGUUUACAGAAAAAUCUUGUGCUAGAAUACUUUUUAAAAGGUAUUUUGAAUACCAUUAA | 9.04 ratio
AAGAAGGAGUUUCUGGGCAGGACCGGUGGCAGUUGGUUUAAGAUCCUUCUAUUCUACGUAAUAUUUUAUGGCUGCCUGGCUGGCAUCUUCAUCGGAACCAUCCAAGUGAUGCUGCUCACC | 0.259 ratio
AGUGAGUGGAAGCGGCGGGACGAGGCGCGGAGGCGCGAGCUGGAGGCCCGGCGGCGGCGAGAGCAGGAGGAGGAGCUGCGGCGCCUGCGGGAGCAGGAGAAGGAGGAGAAGGAGCGGAGG | 0.385 ratio
UUUGAAGAAGGUGUGGGGAAACCUGCCAAGCAACUCCAAGAUCUGAGGAAUGCAUCUAGACUUAUUCGUGUGAAUCCUGAAAGUACAACAUCAGUGGUCUAAUGCUUGGGUCUGUUUAUA | 0.111 ratio
AAAUGUACAGAAUCUGAAGAAGAAGAAGUCACCAAAGGAAAGGAAAAUCAACUUCAGCUUAGCUGUUUUAUCAAUCAGGAAGUCAAGUAUCUUUUUACAGGACUUAAAUUGCGACUUCAG | 0.152 ratio
AUUCCUCUUCCAGCUGCUGAAAGGCCUGGGAUUCUGUCACAGCCGCAACGUGCUACAUAGGGACCUGAAGCCCCAGAACCUGCUCAUAAACAGGAAUGGGGAGUUGAAAUUGGCUGAUUU | 0.117 ratio
AUUAUUCUAUAUUUAAACUGUUGGUCAGAAAAUGAUCUGCAAUUCAAGUAAGUCUGCAUUACUUUUUUCUUUAAAAAGUACUUUAACAUGCCUUAUUUAUUAUAUUAGCAAAUGAGCUAA | 0.537 ratio

Set 5 — technique: protein binding microarray; molecule type: double-stranded DNA, one strand shown; sample: in vitro; tested at: not given; reference: not given; direction: higher = stronger binding
Target: Histone acetyltransferase KAT6A, both winged helices, GST fusion (KAT6A, Homo sapiens, UniProt Q92794, residues 1-181)
Notes: 8-mer, flanks averaged, mean of 2 arrays, mostly near background
Residues (chain): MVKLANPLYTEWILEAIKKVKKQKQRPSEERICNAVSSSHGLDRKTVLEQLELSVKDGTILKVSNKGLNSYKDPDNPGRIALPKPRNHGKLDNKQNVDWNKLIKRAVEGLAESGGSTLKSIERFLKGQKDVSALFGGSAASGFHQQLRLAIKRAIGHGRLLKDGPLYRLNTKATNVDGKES
Strand | E-score
CATACACG | -0.0185
GGGGCCCC | -0.129
ACCAGCCT | -0.108
ACAGACAT | -0.0702
CGACGAGA | -0.0945
CCGGATCA | 0.0984
GACCTACA | 0.0119
CCATGTTC | -0.0241
CGTTTTAA | -0.0931
GTTGATTA | -0.00889
CCCAAACA | -0.302
CGCAGTCA | 0.111
AGAAAGTA | -0.0765
CGCACTTA | 0.132
AAGCCATT | 0.0888
CCGGCTAA | 0.216
ACTTCTAA | -0.0498
GAGCTGCC | 0.025
CGAGTTGA | -0.0568
ATTACATG | -0.00831
GTGCCAAA | -0.124
CGATTAGA | 0.0884
CAATCCCA | -0.223
CGAGGCCG | 0.188

A few entries again (set 4):
Strand | bound/input enrichment
AAAUGUACAGAAUCUGAAGAAGAAGAAGUCACCAAAGGAAAGGAAAAUCAACUUCAGCUUAGCUGUUUUAUCAAUCAGGAAGUCAAGUAUCUUUUUACAGGACUUAAAUUGCGACUUCAG | 0.152 ratio
GGCUUUGCGCUACUCUUCUACCUUGAACAGCUUCUUGGGGGACCAGAGGUGUUUCUAGGAUUCUUAAAGGCUUAUGUUAAGAAGUUUUCCUACCAAAGUGUAACGACUGAUGACUGGAAG | 0.185 ratio
AAGAAGGAGUUUCUGGGCAGGACCGGUGGCAGUUGGUUUAAGAUCCUUCUAUUCUACGUAAUAUUUUAUGGCUGCCUGGCUGGCAUCUUCAUCGGAACCAUCCAAGUGAUGCUGCUCACC | 0.259 ratio
AGUGAGUGGAAGCGGCGGGACGAGGCGCGGAGGCGCGAGCUGGAGGCCCGGCGGCGGCGAGAGCAGGAGGAGGAGCUGCGGCGCCUGCGGGAGCAGGAGAAGGAGGAGAAGGAGCGGAGG | 0.385 ratio
GCUCUAGUUCUUAACAACCGACACUCCUACAAGAUUUAGAAAAAAGUUUACAACAUAAUCUAGUUUACAGAAAAAUCUUGUGCUAGAAUACUUUUUAAAAGGUAUUUUGAAUACCAUUAA | 9.04 ratio
GUUGUAAAUCAGACUCCAGCAAUUUUUGUUGUAUGAUUUUGUUUUUUUGUAAAGUGUAAUUGUCCUUGUACAAAAUGCUCAUAUUUAAUUAUGAACUGCUUUAAAUCACUAUCAAAGUUA | 0.218 ratio
UUUGAAGAAGGUGUGGGGAAACCUGCCAAGCAACUCCAAGAUCUGAGGAAUGCAUCUAGACUUAUUCGUGUGAAUCCUGAAAGUACAACAUCAGUGGUCUAAUGCUUGGGUCUGUUUAUA | 0.111 ratio
